Measurements pooled from the literature.
Numbered parts are unrelated; each lists some results of a single study. Changes are numbered by the printed parent chain.

Sample 1
Target: Max dimerization protein 1, bHLH-zipper, MAX partner unstated (MXD1, Homo sapiens, UniProt Q05195, residues 56-136)
Method: protein-binding microarray
Molecule type: double-stranded DNA, one strand shown
Matrix: in vitro
Concentration: not given
Setting: k-mer, scored over probes, only values ≥0.25
Direction: higher = stronger binding
Residues (chain): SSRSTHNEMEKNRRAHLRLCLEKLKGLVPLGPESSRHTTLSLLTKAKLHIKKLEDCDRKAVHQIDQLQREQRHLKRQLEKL
Oligonucleotide | E-score
CGTGTGAA | 0.299
CAACGAGG | 0.267
ACGTGGCT | 0.389
ACGCCCCC | 0.259
CACGCTGC | 0.404
CGTGTGCC | 0.28
CACACGGG | 0.302
ACACACAT | 0.323

Sample 2
Target: Ras GTPase-activating protein-binding protein 1, RRM domain (G3BP1, Homo sapiens, UniProt Q13283)
Sequence of UniProt Q13283 (whole entry, looked up): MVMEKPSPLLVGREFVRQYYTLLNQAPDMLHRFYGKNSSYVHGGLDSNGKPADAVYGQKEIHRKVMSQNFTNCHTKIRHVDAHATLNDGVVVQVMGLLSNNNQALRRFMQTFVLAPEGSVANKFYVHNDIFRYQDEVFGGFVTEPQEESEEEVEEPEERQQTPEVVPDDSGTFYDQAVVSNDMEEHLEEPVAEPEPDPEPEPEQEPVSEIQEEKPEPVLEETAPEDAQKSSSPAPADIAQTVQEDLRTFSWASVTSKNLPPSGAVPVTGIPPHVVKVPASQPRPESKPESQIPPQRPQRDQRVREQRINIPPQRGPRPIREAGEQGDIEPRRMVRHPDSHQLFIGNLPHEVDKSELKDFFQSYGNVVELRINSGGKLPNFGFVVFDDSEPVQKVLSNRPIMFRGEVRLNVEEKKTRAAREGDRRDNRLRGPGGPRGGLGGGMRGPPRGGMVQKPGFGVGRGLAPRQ
Method: RNA Bind-n-Seq
Molecule type: RNA
Matrix: in vitro
Concentration: 1 µM
Setting: whole 134-nt RNA, ends assumed
With: 150 mM KCl
Baseline: input library
Direction: higher = stronger binding
Constant ends, left off below: GGGAGUUCUACAGUCCGACGAUC … UGGAAUUCUCGGGUGUCAAGG
Oligonucleotide | log2 enrichment
GUGCUGGCUGGCCACGGUCACCUGUAUUCCCGCAUCCCAGGCCUGCUCAGCCCCCAUCCCCUGCUGCAGCUGAGCUACACGGCCACCGAC | -0.392
AGUCCUGUGCUACACAUCGUAUGUACCGAAUCGGGGAAAAGGGGAAAAGGGAAAAGGGAAAGUAUUAUGUUACGCCGUUCGGAUCUGCAC | 0.39
UGUUCACAUUUUAAGGAUGACAAGUCCACUAUAUGUAACACGUAAGAAUGCUAUCCUGGCAGUAGACACAGGGCCAGAAUAAACUGGCAA | -0.122
UGUGCUACACAUCGUAUGUACCGAAUCGGGGAAAAAAAGGGAAAAAAAGGGGAAAAAAAGGGAAAGUAUUAUGUUACGCCGUUCGGAUCU | 0.214
AGUCCUGUGCUACACAUCGUAUGUACCGAAUCGGAAAAAGGGGAAAAAGGAAAAAGGGAAAGUAUUAUGUUACGCCGUUCGGAUCUGCAC | -0.077
UCAAGUCCUGUGCUACACAUCGUAUGUACCGAAUCGGGGUGGGGUGGGGUGGGGAAAGUAUUAUGUUACGCCGUUCGGAUCUGCACUUCC | 0.0648
UCCUGUGCUACACAUCGUAUGUACCGAAUCGUGUGUGUGUGUGUGUGUGUGUGUGUGUGUAAAGUAUUAUGUUACGCCGUUCGGAUCUGC | 0.0407
UGGCCCUGGUGGCAUGCGGGGAGGAAGAGGUGGCCUCAUGGAUCGUGGUGGUCCCGGUGGUAUGUUCAGAGGUGGCCGUGGUGGAGACAG | 0.897

Further values, each from its own experiment
P1: viral docking peptide; KGVKRKLFAEDSS; partner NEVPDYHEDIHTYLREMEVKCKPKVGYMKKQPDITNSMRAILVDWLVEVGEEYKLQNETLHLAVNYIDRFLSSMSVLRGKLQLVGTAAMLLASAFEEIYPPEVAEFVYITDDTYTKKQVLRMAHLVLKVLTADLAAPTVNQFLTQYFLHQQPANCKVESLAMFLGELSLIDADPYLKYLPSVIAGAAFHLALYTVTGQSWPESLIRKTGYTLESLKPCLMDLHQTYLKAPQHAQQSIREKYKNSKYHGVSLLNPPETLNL
Substance | target | test | test system | conditions | how to read | measurement | result
P1 K1A | CCNA2, cyclin fold, Cln2 fusion (human) | yeast growth competition, sequencing | yeast | strong parent motif | baseline: not given, higher = stronger binding | normalised enrichment score | 6.47
PhoQ, residues 284 288 289 292 302 303 ALAMYF | PhoP, residues 12 14 15 18 19 TPLRH (Escherichia coli, UniProt P23836) | Sort-seq, item: YFP reporter | E. coli | PhoQ-PhoP variant library, with: 10 µM Mg2+ | baseline: high Mg2+ state, higher = stronger signaling | fold induction | 5.78

Repeated from above (sample 1):
Oligonucleotide | E-score
ACGCCCCC | 0.259
CGTGTGCC | 0.28
